# Assay results collected from several papers.
# A part holds a random share of what one study measured. Several values in a cell are separate wells, animals, samples, runs or records.
# Chain of UniProt P00519 (whole entry, unmodified, looked up): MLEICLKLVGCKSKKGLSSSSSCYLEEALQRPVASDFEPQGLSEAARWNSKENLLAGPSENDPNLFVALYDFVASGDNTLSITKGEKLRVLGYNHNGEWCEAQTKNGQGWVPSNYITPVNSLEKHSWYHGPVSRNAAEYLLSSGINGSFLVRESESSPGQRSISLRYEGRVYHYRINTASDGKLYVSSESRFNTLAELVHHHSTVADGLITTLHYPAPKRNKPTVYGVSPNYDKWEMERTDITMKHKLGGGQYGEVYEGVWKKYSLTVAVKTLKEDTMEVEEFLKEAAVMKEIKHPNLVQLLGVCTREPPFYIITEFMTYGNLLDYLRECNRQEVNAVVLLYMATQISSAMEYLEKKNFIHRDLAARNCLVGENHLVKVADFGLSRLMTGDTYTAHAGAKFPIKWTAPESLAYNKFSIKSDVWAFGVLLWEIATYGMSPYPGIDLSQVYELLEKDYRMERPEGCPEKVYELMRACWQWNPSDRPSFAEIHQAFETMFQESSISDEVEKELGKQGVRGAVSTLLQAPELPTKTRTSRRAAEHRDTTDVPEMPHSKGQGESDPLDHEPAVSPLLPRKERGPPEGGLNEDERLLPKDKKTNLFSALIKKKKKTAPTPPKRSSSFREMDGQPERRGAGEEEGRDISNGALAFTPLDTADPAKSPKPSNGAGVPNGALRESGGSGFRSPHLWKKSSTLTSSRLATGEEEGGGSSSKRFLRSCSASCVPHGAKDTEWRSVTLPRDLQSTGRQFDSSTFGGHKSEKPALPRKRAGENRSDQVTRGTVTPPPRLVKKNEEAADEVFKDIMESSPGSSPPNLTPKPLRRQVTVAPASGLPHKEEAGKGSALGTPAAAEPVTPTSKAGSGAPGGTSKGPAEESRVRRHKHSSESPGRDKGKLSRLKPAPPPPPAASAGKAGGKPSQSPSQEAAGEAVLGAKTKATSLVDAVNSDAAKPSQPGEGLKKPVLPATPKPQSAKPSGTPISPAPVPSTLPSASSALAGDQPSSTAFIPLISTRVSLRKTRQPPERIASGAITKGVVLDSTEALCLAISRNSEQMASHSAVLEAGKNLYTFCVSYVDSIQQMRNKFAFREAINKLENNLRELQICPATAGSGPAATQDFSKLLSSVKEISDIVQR
# Chain of UniProt P31751 (whole entry, looked up): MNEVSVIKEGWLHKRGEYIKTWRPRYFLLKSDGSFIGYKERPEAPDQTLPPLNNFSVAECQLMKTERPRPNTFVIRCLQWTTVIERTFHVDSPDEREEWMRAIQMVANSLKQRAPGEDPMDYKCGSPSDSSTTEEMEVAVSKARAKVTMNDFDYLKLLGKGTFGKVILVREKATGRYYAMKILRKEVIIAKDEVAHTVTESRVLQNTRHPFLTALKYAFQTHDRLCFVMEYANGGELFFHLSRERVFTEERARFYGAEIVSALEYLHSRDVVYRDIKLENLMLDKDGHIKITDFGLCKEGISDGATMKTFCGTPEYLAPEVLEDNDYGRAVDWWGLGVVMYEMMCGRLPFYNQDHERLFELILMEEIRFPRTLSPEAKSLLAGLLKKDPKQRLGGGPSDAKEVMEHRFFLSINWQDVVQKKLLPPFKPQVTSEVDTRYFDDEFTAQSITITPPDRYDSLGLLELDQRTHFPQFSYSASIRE
# Chain of UniProt P07949 (whole entry, unmodified, looked up): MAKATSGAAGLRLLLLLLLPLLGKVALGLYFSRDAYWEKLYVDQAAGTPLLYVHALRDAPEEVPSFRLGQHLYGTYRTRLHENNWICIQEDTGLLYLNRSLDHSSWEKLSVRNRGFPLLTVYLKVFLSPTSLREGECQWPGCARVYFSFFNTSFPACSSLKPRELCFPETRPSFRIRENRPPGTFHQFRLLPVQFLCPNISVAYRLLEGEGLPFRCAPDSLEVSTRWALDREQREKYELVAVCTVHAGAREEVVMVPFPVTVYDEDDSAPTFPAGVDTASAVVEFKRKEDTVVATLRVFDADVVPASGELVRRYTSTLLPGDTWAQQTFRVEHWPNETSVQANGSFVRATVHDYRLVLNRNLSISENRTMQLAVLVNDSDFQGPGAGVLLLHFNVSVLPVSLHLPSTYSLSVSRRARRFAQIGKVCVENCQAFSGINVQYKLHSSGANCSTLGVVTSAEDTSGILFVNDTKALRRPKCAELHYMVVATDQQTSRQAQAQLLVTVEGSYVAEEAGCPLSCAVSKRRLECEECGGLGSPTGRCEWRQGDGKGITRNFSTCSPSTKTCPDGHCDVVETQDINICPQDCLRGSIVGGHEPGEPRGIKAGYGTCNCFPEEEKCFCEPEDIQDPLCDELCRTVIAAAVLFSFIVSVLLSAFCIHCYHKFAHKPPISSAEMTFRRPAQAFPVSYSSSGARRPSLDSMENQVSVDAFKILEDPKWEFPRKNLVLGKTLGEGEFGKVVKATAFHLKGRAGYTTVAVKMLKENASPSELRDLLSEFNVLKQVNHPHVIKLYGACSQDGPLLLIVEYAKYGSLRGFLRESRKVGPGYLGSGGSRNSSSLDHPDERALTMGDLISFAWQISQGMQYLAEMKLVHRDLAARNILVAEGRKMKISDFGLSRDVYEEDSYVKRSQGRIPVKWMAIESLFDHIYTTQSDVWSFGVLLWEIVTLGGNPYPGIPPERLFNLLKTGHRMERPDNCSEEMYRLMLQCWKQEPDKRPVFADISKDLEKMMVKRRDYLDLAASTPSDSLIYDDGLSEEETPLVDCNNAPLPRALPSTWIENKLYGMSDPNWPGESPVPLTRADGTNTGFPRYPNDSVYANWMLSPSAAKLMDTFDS
# Chain of UniProt Q96NX5 (whole entry, looked up): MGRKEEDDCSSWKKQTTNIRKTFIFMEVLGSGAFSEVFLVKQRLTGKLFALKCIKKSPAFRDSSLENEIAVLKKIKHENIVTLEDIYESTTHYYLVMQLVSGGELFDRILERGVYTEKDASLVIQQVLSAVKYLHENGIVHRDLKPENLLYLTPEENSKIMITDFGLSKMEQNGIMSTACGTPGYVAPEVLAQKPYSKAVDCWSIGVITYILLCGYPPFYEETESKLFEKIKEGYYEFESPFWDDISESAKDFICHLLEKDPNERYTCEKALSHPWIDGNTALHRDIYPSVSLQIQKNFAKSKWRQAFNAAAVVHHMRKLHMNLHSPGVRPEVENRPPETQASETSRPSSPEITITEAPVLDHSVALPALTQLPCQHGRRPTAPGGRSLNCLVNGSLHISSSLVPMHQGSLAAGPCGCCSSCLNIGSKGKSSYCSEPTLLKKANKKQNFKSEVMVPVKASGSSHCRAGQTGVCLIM
# Chain of UniProt Q9HC98 (whole entry, looked up): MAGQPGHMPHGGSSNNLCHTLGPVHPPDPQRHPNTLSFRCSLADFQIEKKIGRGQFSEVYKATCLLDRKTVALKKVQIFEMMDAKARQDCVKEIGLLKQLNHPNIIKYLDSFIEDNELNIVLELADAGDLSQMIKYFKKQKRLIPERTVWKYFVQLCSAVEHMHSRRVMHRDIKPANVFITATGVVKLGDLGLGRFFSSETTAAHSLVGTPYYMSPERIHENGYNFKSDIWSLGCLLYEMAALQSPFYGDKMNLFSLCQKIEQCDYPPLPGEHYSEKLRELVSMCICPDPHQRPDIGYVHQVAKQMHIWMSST
# Chain of UniProt P46734 (whole entry, looked up): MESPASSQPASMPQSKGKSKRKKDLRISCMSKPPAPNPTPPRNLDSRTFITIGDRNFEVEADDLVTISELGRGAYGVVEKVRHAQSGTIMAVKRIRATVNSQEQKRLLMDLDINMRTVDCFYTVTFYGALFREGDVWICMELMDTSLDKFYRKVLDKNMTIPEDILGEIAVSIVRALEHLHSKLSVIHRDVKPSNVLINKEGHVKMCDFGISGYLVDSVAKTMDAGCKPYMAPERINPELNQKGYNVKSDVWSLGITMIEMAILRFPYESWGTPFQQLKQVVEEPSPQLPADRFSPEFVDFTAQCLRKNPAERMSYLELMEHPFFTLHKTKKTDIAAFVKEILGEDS

# Series 1
# Compound: Cc1ccc(NC(=O)c2ccnc(C(F)(F)F)c2)cc1-c1cc(OCCO)nc(N2CCOCC2)c1
# Tested at: 1 µM
target,assay,remaining binding
"Proto-oncogene tyrosine-protein kinase receptor Ret (RET, Homo sapiens, UniProt P07949, M918T)",binding,81%
"Dual specificity mitogen-activated protein kinase kinase 3 (MAP2K3, Homo sapiens, UniProt P46734)",binding,77%
"Serine/threonine-protein kinase Nek6 (NEK6, Homo sapiens, UniProt Q9HC98)",binding,81%
"Calcium/calmodulin-dependent protein kinase type 1G (CAMK1G, Homo sapiens, UniProt Q96NX5)",binding,100%
"Tyrosine-protein kinase ABL1 (ABL1, Homo sapiens, UniProt P00519, T315I)",,77% and 100%
"RAC-beta serine/threonine-protein kinase (AKT2, Homo sapiens, UniProt P31751)",binding,100%
"Phosphatidylinositol 4,5-bisphosphate 3-kinase catalytic subunit alpha isoform (PIK3CA, Homo sapiens, UniProt P42336, M1043I)",binding,94%

# Series 2
# Target: Mitogen-activated protein kinase 12 (MAPK12, Homo sapiens, UniProt P53778)
# Chain of UniProt P53778 (whole entry, looked up): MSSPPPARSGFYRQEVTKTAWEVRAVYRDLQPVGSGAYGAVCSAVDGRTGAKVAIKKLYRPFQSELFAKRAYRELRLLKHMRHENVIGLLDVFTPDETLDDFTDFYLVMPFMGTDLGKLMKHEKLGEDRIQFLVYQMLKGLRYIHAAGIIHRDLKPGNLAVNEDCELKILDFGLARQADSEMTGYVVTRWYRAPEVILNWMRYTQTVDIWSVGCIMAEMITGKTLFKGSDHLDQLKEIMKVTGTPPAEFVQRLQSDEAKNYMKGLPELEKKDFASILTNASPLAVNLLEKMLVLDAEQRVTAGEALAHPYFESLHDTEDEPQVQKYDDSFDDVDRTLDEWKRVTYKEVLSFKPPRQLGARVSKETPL
# Read-out: enzyme activity
# Action: inhibitor
# Tested at: 0.5 µM
# Baseline: control
Compound,remaining activity
OCC(O)CCON=C1C(c2c(O)[nH]c3ccccc23)=Nc2ccccc21 (centres unmarked),89.9%
C#Cc1cccc(Nc2ncnc3cc(OCCOC)c(OCCOC)cc23)c1,97.8%
CCOC(=O)c1c(C)[nH]c(/C=C2\C(=O)Nc3ccccc32)c1C,101%
COc1cc2ncnc(Nc3ccc(F)c(Cl)c3)c2cc1OCCCN1CCOCC1,97.5%
O=C(CCCc1ccc(-c2ccccc2F)cc1)Nc1ccc(O)cc1,104%
CN(C)c1ccc(C=C2C(=O)Nc3ccccc32)cc1,102%
N#CC(C#N)=C(N)/C(C#N)=C/c1ccc(O)cc1,92.6%
COc1cc2nccc(Oc3ccc(NC(=S)NC(=O)c4ccccc4C)cc3)c2cc1OC,96.8%
O=C1NC(=O)C(c2cn(CCCO)c3ncccc23)=C1c1cnccn1,86.8%
Nc1ncnc2n[nH]c(Nc3ccc(F)cc3)c12,94.2%
Cc1nc(-c2ccccc2)c(-c2ccncc2)o1,105%
Cc1ccc(NC(=O)c2ccc(CN3CCN(C)CC3)cc2)cc1Nc1nc(-c2cccnc2)cs1,96.9%
Nc1ccc2ncnc(NCCc3ccc(Oc4ccccc4)cc3)c2c1,93.6%
Cn1c2ccccc2c2c3c(c4c5ccccc5n(CCC#N)c4c21)CNC3=O,85.8%

# Series 3
# Host: mouse
# Matrix: microsomes or S9
# Tested at: 2 µM
# Time: 0.5 h
SMILES,remaining compound [%]
O=C(Nc1ccc2nncn2c1)c1cccc2cc[nH]c12,74.5
Cc1nn2c(nnc3c(=O)n(-c4nnc[nH]4)ccc32)c1-c1ccccc1,85.6
COc1ccc(OC)c(NC(=O)c2cc3cccc4c3n2CC(C)S4)c1 (centres unmarked),13.2
CC(C)(C)OC(=O)NCCC(=O)Nc1nc2cc(F)ccc2s1,46.1
COc1ccc(C2(C)CC(C)(C)Nc3ccccc32)cc1 (centres unmarked),0.191

# Series 4
# Target: 5-hydroxytryptamine receptor 7 (HTR7, Homo sapiens, UniProt P34969)
# Chain of UniProt P34969 (whole entry, looked up): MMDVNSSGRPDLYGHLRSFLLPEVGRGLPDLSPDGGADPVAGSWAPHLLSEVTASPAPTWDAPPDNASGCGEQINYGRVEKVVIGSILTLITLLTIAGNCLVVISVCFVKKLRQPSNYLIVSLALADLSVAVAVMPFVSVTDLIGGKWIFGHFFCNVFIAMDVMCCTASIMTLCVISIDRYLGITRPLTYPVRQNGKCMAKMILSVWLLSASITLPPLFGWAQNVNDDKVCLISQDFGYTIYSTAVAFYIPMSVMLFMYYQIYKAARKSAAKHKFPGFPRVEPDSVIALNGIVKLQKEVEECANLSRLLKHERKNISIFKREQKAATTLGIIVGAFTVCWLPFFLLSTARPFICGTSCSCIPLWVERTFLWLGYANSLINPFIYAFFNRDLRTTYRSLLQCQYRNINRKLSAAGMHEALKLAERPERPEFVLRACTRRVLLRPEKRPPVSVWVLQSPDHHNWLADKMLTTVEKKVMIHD
# Read-out: ligand displacement
# Tested at: 10 µM
SMILES,inhibition [%]
Cc1ncc(-c2cc(Cl)ccc2F)cc1-n1c(=O)n(CC(N)=O)c2ccccc21,12.1
CC1CCN(c2ccnc(NCc3cn(C)cn3)n2)CC1,34.6
C[C@H](c1ccnc(Nc2nc3ccc(-c4cc(N(C)C)ncn4)cc3[nH]2)c1)N1CCN(C(=O)CC(F)(F)F)CC1,16.6
NC(=O)c1ccc2nc(-c3ccc(C4(N)CCC4)cc3)c(-c3ccccc3)n2n1,12.9
CN([C@@H]1CCc2c(CC(=O)O)c3ccccc3n2C1)S(=O)(=O)c1ccc(F)cc1,4.11
COc1cccc(NC(=O)c2nc3scc(CN(C)Cc4ccccc4)c3c(=O)[nH]2)c1,-5.94
